# Published values collected from several papers.
# Every numbered part comes from another study and shows a few of its results, in no order.
# Chain of UniProt P11802 (whole entry, looked up): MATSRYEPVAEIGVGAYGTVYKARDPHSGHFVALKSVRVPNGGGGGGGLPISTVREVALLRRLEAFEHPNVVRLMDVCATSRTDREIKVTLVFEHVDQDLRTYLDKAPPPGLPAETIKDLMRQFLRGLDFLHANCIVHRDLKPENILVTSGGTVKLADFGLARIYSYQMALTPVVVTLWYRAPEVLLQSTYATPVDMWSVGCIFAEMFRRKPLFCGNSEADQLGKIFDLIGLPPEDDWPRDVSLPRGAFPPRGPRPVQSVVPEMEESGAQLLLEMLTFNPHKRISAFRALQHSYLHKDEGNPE
# Chain of UniProt P35590 (whole entry, looked up): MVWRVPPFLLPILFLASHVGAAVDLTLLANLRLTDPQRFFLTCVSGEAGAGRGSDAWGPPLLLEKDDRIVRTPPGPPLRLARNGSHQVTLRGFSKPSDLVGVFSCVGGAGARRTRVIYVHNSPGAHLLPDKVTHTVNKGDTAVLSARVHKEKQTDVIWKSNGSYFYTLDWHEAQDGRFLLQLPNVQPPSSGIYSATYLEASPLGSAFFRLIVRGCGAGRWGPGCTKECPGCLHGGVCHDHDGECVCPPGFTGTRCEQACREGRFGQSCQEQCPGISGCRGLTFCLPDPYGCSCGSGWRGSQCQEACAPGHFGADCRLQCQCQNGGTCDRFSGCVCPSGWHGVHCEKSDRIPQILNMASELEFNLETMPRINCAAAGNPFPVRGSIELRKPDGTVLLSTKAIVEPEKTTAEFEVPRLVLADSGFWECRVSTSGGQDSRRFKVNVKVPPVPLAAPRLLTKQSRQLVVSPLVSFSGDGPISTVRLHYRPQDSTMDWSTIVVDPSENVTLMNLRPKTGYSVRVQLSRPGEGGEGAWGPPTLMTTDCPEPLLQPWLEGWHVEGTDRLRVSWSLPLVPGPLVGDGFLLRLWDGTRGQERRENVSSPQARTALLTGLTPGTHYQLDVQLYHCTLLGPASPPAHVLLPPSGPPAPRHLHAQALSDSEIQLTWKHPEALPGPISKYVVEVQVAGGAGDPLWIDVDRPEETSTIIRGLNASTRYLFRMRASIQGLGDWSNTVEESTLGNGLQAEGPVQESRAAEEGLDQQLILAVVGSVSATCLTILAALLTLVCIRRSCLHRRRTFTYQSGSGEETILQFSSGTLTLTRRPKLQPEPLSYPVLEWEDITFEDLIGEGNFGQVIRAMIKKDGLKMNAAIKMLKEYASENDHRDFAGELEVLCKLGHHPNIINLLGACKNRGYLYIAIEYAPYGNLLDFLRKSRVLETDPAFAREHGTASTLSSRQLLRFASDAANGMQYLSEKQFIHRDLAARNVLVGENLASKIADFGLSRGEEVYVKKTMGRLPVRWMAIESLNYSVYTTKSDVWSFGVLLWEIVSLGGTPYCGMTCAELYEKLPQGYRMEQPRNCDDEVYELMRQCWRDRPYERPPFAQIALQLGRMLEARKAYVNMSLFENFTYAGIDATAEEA
# Chain of UniProt P07949 (whole entry, looked up): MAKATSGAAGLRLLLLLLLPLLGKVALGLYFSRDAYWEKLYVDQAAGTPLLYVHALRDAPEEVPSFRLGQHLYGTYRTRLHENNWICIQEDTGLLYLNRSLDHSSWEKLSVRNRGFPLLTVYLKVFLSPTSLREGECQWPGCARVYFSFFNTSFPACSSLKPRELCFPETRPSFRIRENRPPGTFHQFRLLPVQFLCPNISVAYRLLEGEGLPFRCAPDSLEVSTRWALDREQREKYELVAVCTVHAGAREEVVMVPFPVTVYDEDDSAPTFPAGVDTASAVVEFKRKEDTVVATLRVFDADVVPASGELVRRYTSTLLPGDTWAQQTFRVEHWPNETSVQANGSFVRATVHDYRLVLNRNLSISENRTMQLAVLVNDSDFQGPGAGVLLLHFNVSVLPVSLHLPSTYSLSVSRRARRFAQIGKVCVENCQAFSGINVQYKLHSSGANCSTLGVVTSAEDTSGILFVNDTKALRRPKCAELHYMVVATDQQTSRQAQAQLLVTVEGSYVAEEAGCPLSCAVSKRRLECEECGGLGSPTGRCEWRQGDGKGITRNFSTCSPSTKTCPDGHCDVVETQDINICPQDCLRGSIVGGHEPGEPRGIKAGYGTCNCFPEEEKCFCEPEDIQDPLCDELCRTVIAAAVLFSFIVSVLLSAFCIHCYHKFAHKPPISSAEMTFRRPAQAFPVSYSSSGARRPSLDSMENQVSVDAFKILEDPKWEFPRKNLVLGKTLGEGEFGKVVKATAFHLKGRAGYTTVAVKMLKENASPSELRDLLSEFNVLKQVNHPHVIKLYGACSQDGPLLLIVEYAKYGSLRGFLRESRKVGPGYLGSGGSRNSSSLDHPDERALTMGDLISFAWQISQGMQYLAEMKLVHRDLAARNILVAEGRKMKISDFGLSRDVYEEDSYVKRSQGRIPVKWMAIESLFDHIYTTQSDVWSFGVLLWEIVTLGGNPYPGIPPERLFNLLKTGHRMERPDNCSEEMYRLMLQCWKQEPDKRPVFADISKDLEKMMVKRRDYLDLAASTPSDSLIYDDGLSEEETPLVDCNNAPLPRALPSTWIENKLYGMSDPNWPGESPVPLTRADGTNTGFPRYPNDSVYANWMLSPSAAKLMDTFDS
# Chain of UniProt Q9H2X6 (whole entry, looked up): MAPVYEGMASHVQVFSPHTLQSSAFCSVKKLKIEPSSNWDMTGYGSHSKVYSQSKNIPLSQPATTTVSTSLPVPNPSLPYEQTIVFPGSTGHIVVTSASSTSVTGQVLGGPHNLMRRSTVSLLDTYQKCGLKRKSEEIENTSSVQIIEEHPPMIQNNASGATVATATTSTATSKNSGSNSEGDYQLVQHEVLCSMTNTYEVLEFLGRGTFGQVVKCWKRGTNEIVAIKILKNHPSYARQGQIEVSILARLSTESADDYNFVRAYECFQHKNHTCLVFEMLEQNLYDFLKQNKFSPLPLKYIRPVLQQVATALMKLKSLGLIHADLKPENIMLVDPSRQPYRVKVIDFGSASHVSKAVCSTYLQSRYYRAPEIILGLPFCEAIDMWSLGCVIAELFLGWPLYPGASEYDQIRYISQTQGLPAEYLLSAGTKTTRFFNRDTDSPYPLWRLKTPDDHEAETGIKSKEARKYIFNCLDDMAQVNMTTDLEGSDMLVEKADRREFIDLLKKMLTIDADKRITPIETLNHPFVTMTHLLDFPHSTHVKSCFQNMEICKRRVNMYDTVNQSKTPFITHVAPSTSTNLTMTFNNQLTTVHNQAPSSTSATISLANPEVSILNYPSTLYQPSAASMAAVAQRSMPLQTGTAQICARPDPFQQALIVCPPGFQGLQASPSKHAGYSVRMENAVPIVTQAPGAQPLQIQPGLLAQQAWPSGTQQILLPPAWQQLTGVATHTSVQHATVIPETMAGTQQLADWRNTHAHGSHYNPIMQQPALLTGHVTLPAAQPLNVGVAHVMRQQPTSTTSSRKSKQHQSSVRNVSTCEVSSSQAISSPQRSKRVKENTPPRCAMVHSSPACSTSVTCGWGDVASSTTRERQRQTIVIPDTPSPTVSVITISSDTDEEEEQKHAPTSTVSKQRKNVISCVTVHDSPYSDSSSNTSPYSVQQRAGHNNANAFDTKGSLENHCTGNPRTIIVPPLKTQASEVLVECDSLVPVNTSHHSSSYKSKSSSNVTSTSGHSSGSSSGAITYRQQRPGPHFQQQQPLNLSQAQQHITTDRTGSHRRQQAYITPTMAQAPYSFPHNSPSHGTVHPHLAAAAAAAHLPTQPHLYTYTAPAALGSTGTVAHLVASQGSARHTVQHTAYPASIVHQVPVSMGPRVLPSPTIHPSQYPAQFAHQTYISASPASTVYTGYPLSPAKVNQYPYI
# Chain of UniProt Q9H3Y6 (whole entry, looked up): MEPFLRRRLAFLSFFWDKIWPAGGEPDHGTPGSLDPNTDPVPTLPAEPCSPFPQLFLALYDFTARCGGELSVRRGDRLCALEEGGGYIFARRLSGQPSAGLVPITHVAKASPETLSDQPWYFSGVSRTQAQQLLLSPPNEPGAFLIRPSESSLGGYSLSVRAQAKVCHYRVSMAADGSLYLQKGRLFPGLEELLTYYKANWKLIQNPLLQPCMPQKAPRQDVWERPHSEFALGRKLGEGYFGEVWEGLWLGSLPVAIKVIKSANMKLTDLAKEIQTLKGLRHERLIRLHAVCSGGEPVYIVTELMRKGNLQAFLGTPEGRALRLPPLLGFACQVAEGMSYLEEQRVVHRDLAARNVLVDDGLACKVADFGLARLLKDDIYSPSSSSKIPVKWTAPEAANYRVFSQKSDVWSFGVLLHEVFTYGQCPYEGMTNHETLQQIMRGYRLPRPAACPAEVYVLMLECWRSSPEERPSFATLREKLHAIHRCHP
# Chain of UniProt P51451 (whole entry, looked up): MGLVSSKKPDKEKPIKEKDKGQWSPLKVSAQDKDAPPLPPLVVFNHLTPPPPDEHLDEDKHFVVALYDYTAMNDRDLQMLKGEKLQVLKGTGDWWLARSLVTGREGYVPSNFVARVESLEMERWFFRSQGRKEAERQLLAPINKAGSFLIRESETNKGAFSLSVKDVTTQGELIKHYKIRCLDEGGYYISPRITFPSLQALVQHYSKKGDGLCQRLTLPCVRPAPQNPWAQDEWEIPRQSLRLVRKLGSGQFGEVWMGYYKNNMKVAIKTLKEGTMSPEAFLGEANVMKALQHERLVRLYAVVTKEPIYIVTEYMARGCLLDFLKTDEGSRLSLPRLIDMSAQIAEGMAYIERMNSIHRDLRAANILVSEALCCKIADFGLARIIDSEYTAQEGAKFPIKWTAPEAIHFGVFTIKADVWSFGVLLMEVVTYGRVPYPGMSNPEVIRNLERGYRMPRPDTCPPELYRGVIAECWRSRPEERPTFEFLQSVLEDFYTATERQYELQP
# Chain of UniProt Q00534 (whole entry, looked up): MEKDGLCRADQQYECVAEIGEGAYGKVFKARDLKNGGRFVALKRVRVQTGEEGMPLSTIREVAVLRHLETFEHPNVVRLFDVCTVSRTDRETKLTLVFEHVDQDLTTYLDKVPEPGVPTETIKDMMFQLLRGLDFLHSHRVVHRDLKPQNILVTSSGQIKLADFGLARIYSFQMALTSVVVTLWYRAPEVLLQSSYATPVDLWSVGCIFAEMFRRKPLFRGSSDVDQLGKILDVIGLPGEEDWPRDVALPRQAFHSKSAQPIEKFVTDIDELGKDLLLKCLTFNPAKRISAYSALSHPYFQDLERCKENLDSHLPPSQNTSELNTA

# Study 1
# Organism: Sarcocystis neurona
# Effect on: parasite growth
# Tested at: 10 µM
# Time: 96 h
# Reference: untreated
SMILES,log2 fold change
C#C[C@]1(O)CC[C@H]2[C@@H]3CCC4=Cc5oncc5C[C@]4(C)[C@H]3CC[C@@]21C,-0.18
O=C(NCCN1CCOCC1)c1ccc(Cl)cc1,0.41
CC1Cc2ccccc2N1NC(=O)c1ccc(Cl)c(S(N)(=O)=O)c1 (centres unmarked),0.43
CCCCC[C@H](O)/C=C/[C@H]1[C@H](O)CC(=O)[C@@H]1CCCCCCC(=O)O,0.38
CCc1nn(CCCN2CCN(c3cccc(Cl)c3)CC2)c(=O)n1CCOc1ccccc1,-1.66
COc1cc2c(cc1OC)C(=O)C(CC1CCN(Cc3ccccc3)CC1)C2 (centres unmarked),0.37
CC(=O)[C@H]1CC[C@H]2[C@@H]3CCC4=CC(=O)CC[C@]4(C)[C@H]3CC[C@]12C,-0.16
COc1cc(NC(C)CCCN)c2ncccc2c1 (centres unmarked),-6.28
N[C@@H](Cc1cc(I)c(Oc2cc(I)c(O)c(I)c2)c(I)c1)C(=O)O,0.44
C[C@H]1COc2c(N3CCN(C)CC3)c(F)cc3c(=O)c(C(=O)O)cn1c23,-0.1
Cc1nc2n(c(=O)c1CCN1CCC(c3noc4cc(F)ccc34)CC1)CCCC2,-0.0641
CC1(C)O[C@@H]2C[C@H]3[C@@H]4C[C@H](F)C5=CC(=O)C=C[C@]5(C)[C@H]4[C@@H](O)C[C@]3(C)[C@]2(C(=O)CO)O1,0.4
Cc1ccc(-c2cc(C(F)(F)F)nn2-c2ccc(S(N)(=O)=O)cc2)cc1,0.36
CCCc1nc2c(C)cc(-c3nc4ccccc4n3C)cc2n1Cc1ccc(-c2ccccc2C(=O)O)cc1,-0.16
C[C@H]1C[C@H]2[C@@H]3CCC4=CC(=O)C=C[C@]4(C)[C@@]3(F)[C@@H](O)C[C@]2(C)[C@@]1(O)C(=O)CO,0.45

# Study 2
# Target: Diamine acetyltransferase 1 (Homo sapiens, UniProt P21673)
# Action: inhibitor
# Tested at: 10 µM
# Reference: control
# Target sequence (P21673 1-171): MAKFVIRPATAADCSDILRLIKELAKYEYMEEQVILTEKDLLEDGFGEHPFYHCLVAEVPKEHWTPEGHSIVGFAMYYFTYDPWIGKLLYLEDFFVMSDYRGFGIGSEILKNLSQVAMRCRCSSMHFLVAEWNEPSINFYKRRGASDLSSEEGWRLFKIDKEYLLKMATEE
SMILES,remaining activity [%]
O=C(/C=C/c1ccc(O)cc1)c1ccc(O[C@@H]2O[C@H](CO)[C@@H](O)[C@H](O)[C@H]2O)cc1O,85.8
O=C(/C=C/c1ccc(O)c(O)c1)O[C@@H]1C[C@@](O)(C(=O)O)C[C@@H](O)[C@@H]1O,103
N[C@@H](Cc1c[nH]c2ccccc12)C(=O)O,101
COc1ccc(/C=C/C(=O)/C=C(O)/C=C/c2ccc(OC)c(OC)c2)cc1OC,96.4
O=C(O)[C@@H](O)[C@H](O)C(=O)O,97.2
Cc1nc(C)c(C)nc1C,91.3
C=C(C)[C@@H]1CC[C@]2(C)CC[C@]3(C)[C@H](CC[C@@H]4[C@@]5(C)CC[C@H](O)C(C)(C)[C@@H]5CC[C@]43C)[C@@H]12,88.4
COc1cc(O)c2c(=O)c(-c3ccc(O)cc3)coc2c1,97.2
COc1c2ccoc2cc2oc(=O)ccc12,100
COc1cc(OC)c2c(=O)cc(-c3ccc(O)c(O)c3)oc2c1,91.9

# Study 3
# Structure (SMILES): O=C(NCc1ncc(C(F)(F)F)cc1Cl)c1ccc2c(c1)C1(CCS(=O)(=O)CC1)[C@H](C1CC1)N2S(=O)(=O)c1ccc(F)cc1
# Technique: competition with immobilised ligand
# Tested at: 1 µM
target,effect on,remaining binding [%]
"Proto-oncogene tyrosine-protein kinase receptor Ret (RET, Homo sapiens, UniProt P07949)",cell-free assay,98
"Tyrosine-protein kinase ABL1, phosphorylated (ABL1, Homo sapiens, UniProt P00519, M351T)",cell-free assay,91
"Tyrosine-protein kinase Fer (FER, Homo sapiens, UniProt P16591)",cell-free assay,100
"G protein-coupled receptor kinase 3 (GRK3, Homo sapiens, UniProt P35626)",cell-free assay,99
"LIM domain kinase 1 (LIMK1, Homo sapiens, UniProt P53667)",cell-free assay,100
"Dual specificity tyrosine-phosphorylation-regulated kinase 1B (DYRK1B, Homo sapiens, UniProt Q9Y463)",cell-free assay,100
"Serine/threonine-protein kinase 24 (STK24, Homo sapiens, UniProt Q9Y6E0)",cell-free assay,100
"Transient receptor potential cation channel subfamily M member 6 (TRPM6, Homo sapiens, UniProt Q9BX84)",cell-free assay,81
"Cyclin-dependent kinase 4 (CDK4, Homo sapiens, UniProt P11802)",cell-free assay,86
"Ribosomal protein S6 kinase alpha-2, C-terminal kinase domain (RPS6KA2, Homo sapiens, UniProt Q15349)",cell-free assay,99
"Tyrosine-protein kinase receptor Tie-1 (TIE1, Homo sapiens, UniProt P35590)",cell-free assay,100
"MAP/microtubule affinity-regulating kinase 4 (MARK4, Homo sapiens, UniProt Q96L34)",cell-free assay,100
"Glycogen synthase kinase-3 beta (GSK3B, Homo sapiens, UniProt P49841)",cell-free assay,87
"Serine/threonine-protein kinase Chk1 (CHEK1, Homo sapiens, UniProt O14757)",cell-free assay,100
"Serine/threonine-protein kinase MRCK beta (CDC42BPB, Homo sapiens, UniProt Q9Y5S2)",cell-free assay,100
"Activin receptor type-1-like (ACVRL1, Homo sapiens, UniProt P37023)",binding,98
"Platelet-derived growth factor receptor alpha (PDGFRA, Homo sapiens, UniProt P16234)",cell-free assay,90
"Ankyrin repeat and protein kinase domain-containing protein 1 (ANKK1, Homo sapiens, UniProt Q8NFD2)",cell-free assay,89
"Testis-specific serine/threonine-protein kinase 1 (TSSK1B, Homo sapiens, UniProt Q9BXA7)",cell-free assay,100
"Calcium/calmodulin-dependent protein kinase type II subunit alpha (CAMK2A, Homo sapiens, UniProt Q9UQM7)",cell-free assay,94

# Study 4
# SMILES: CC#CC(=O)Nc1cc2c(Nc3ccc(F)c(Cl)c3)ncnc2cn1
# Effect on: enzyme activity
# Action: inhibitor
# Tested at: 0.5 µM
# Reference: control
target,remaining activity [%]
"Cyclin-dependent kinase 6, with cyclin D3 (CDK6, Homo sapiens, UniProt Q00534)",103
"Ephrin type-B receptor 4 (EPHB4, Homo sapiens, UniProt P54760)",83.4
"Dual specificity tyrosine-phosphorylation-regulated kinase 3 (DYRK3, Homo sapiens, UniProt O43781)",101
"Tyrosine-protein kinase receptor UFO (AXL, Homo sapiens, UniProt P30530)",100
"Ephrin type-B receptor 1 (EPHB1, Homo sapiens, UniProt P54762)",92
"Mitogen-activated protein kinase kinase kinase kinase 4 (MAP4K4, Homo sapiens, UniProt O95819)",110
"Tyrosine-protein kinase Srms (SRMS, Homo sapiens, UniProt Q9H3Y6)",96.1
"Testis-specific serine/threonine-protein kinase 2 (TSSK2, Homo sapiens, UniProt Q96PF2)",100
"Tyrosine-protein kinase Blk (BLK, Homo sapiens, UniProt P51451)",21.3
"Homeodomain-interacting protein kinase 4 (HIPK4, Homo sapiens, UniProt Q8NE63)",99.7
"3-phosphoinositide-dependent protein kinase 1 (PDPK1, Homo sapiens, UniProt O15530)",99.6
"Ephrin type-A receptor 4 (EPHA4, Homo sapiens, UniProt P54764)",94.6
"Serine/threonine-protein kinase 16 (STK16, Homo sapiens, UniProt O75716)",104
"Cyclin-dependent kinase 4, with cyclin D3 (CDK4, Homo sapiens, UniProt P11802)",105
"Cyclin-dependent kinase 1, with cyclin B (CDK1, Homo sapiens, UniProt P06493)",99.5
"Homeodomain-interacting protein kinase 2 (HIPK2, Homo sapiens, UniProt Q9H2X6)",101
"Phosphorylase b kinase gamma catalytic chain, skeletal muscle/heart isoform (PHKG1, Homo sapiens, UniProt Q16816)",103
"Calcium/calmodulin-dependent protein kinase type II subunit beta (CAMK2B, Homo sapiens, UniProt Q13554)",99.6
"Ribosomal protein S6 kinase alpha-6 (RPS6KA6, Homo sapiens, UniProt Q9UK32)",95.3
"Serine/threonine-protein kinase WNK3 (WNK3, Homo sapiens, UniProt Q9BYP7)",95.1
"Ribosomal protein S6 kinase alpha-5 (RPS6KA5, Homo sapiens, UniProt O75582)",103
"Serine/threonine-protein kinase 17A (STK17A, Homo sapiens, UniProt Q9UEE5)",92.9
"MAP kinase-activated protein kinase 3 (MAPKAPK3, Homo sapiens, UniProt Q16644)",105

# Excerpt of the above (study 3):
target,effect on,remaining binding [%]
"Glycogen synthase kinase-3 beta (GSK3B, Homo sapiens, UniProt P49841)",cell-free assay,87
"Serine/threonine-protein kinase Chk1 (CHEK1, Homo sapiens, UniProt O14757)",cell-free assay,100
"Serine/threonine-protein kinase MRCK beta (CDC42BPB, Homo sapiens, UniProt Q9Y5S2)",cell-free assay,100
"Activin receptor type-1-like (ACVRL1, Homo sapiens, UniProt P37023)",binding,98
"Platelet-derived growth factor receptor alpha (PDGFRA, Homo sapiens, UniProt P16234)",cell-free assay,90
